# Measured values pooled from the literature.
# Compare with care: the assays were run in different laboratories. Numbers after ± are the reported error.
Structure (SMILES),system,setting,tissue uptake [%ID/g]
CCCC[C@H](NC(=O)CNC(=O)CNC(=O)CN1CCN(CC(=O)O)CCN(CC(=O)O)CC1)C(=O)N[C@H]1CC(=O)NCCCC[C@@H](C(N)=O)NC(=O)[C@H](Cc2c[nH]c3ccccc23)NC(=O)[C@H](CCCNC(=N)N)NC(=O)[C@@H](Cc2ccccc2)NC(=O)[C@H](Cc2c[nH]cn2)NC1=O [copper-64 labelled],"female C57 mouse, B16/F1 melanoma, tumor","intravenous, 0.037 MBq, 24 h",4.25 ± 0.32
CN1C(=O)[C@@H](Cc2ccc(O)c(I)c2)NC(=O)CNC(=O)[C@H](Cc2ccc3ccccc3c2)NC(=O)[C@H](CCCNC(=N)N)NC(=O)[C@H]1CCCNC(=O)c1ccc(CNC(=O)CN2CCN(CC(=O)O)CCN(CC(=O)O)CCN(CC(=O)O)CC2)cc1 [lutetium-177 labelled],"female CB-17 SCID mouse, Daudi xenograft, lung","intravenous, 6 h, CXCR4 blocking, with: AMD3100 2 mg/kg coinjected",0.39 ± 0.03
CC(C)[C@H](NC(=O)[C@@H]1CCCN1C(=O)[C@H](CCCNC(=N)N)NC(=O)[C@H](CS)NC(=O)[C@H](Cc1c[nH]c2ccccc12)NC(=O)[C@H](CCCNC(=N)N)NC(=O)[C@@H](Cc1ccccc1)NC(=O)[C@H](Cc1c[nH]cn1)NC(=O)[C@H](CCC(=O)O)NC(=O)[C@H](CS)NC(=O)[C@H](CS)NC(=O)CNC(=O)[C@@H]1CC(=O)N[C@@H](CCCNC(=N)N)C(=O)NCC(=O)N[C@@H](CC(=O)O)C(=O)N[C@H](Cc2ccc(O)cc2)C(=O)N1)C(N)=O [technetium-99m labelled],"C57 mouse, female, B16/F1 melanoma, bone","intravenous, 0.037 MBq, 2 h",0.87 ± 0.15
CCCC[C@H](NC(=O)CNC(=O)CNC(=O)CN1CCN(CC(=O)O)CCN(CC(=O)O)CCN(CC(=O)O)CC1)C(=O)N[C@H]1CC(=O)NCCCC[C@@H](C(N)=O)NC(=O)[C@H](Cc2c[nH]c3ccccc23)NC(=O)[C@H](CCCNC(=N)N)NC(=O)[C@@H](Cc2ccccc2)NC(=O)[C@H](Cc2c[nH]cn2)NC1=O [lead-203 labelled],"C57 mouse, heart","intravenous, 0.056 MBq, 4 h",0.28 ± 0.08
O=C([O-])CN1CCN(CC(=O)[O-])CCN(CC(=O)NCCc2ccc3c(c2)C2C=CCC2C(c2cc4c(cc2Br)OCO4)N3)CCN(CC(=O)[O-])CC1.[111In+3] (centres unmarked),"mouse, Hec50 endometrial tumour, liver",0.5 h post injection,14.3 ± 1.5
CCCC[C@H](NC(=O)CNC(=O)CNC(=O)CN1CCN(CC(=O)O)CCN(CC(=O)O)CCN(CC(=O)O)CC1)C(=O)N[C@H]1CC(=O)NCCCC[C@@H](C(N)=O)NC(=O)[C@H](Cc2c[nH]c3ccccc23)NC(=O)[C@H](CCCNC(=N)N)NC(=O)[C@@H](Cc2ccccc2)NC(=O)[C@H](Cc2c[nH]cn2)NC1=O [copper-64 labelled],"female C57 mouse, B16/F1 melanoma, kidneys","intravenous, 0.037 MBq, 4 h",7.45 ± 0.96
CC(C)[C@H](NC(=O)[C@@H]1CCCN1C(=O)[C@H](CCCNC(=N)N)NC(=O)[C@H](CS)NC(=O)[C@H](Cc1c[nH]c2ccccc12)NC(=O)[C@H](CCCNC(=N)N)NC(=O)[C@@H](Cc1ccccc1)NC(=O)[C@H](Cc1c[nH]cn1)NC(=O)[C@H](CCC(=O)O)NC(=O)[C@H](CS)NC(=O)[C@H](CS)NC(=O)[C@@H]1CC(=O)N[C@@H](CCCNC(=N)N)C(=O)NCC(=O)N[C@@H](CC(=O)O)C(=O)N[C@H](Cc2ccc(O)cc2)C(=O)N1)C(N)=O [technetium-99m labelled],"C57 mouse, female, B16/F1 melanoma, blood","intravenous, 0.037 MBq, 2 h",0.74 ± 0.34
CN(C)c1ccc(-c2nc3ccc(OCCCCCN4CCN5CCN(CC4)CC(=O)[O][Al]([18F])[O]C(=O)C5)cc3s2)cc1,"ICR mouse, blood","intravenous, 60 min",0.31 ± 0.06

# Some of these lines once more:
Structure (SMILES),system,setting,tissue uptake [%ID/g]
O=C([O-])CN1CCN(CC(=O)[O-])CCN(CC(=O)NCCc2ccc3c(c2)C2C=CCC2C(c2cc4c(cc2Br)OCO4)N3)CCN(CC(=O)[O-])CC1.[111In+3] (centres unmarked),"mouse, Hec50 endometrial tumour, liver",0.5 h post injection,14.3 ± 1.5
